Results collected from several papers.
Lines come from different studies, so protocols differ. “And” joins repeats or separate records; there may be more than shown. ± gives the spread as reported.
Sodium- and chloride-dependent glycine transporter 2: Sodium- and chloride-dependent glycine transporter 2 (Homo sapiens, UniProt Q9Y345)
Gria1/Gria2: Glutamate receptor AMPA 1/2 (Gria1/Gria2, Rattus norvegicus, UniProt P19490+P19491)

| SMILES | target or system | assay | test system | setting | how to read | endpoint | result |
| --- | --- | --- | --- | --- | --- | --- | --- |
| C=CC(=O)N1CCCC(n2c(=O)c3ncccc3n(Cc3ccc(Oc4ccccc4)cc3)c2=O)C1 (centres unmarked) | WAS (Homo sapiens, UniProt P42768) | thermal proteome profiling | – | unit not given | reference: untreated control | melting temperature shift | -12.3 |
| Cc1cc(=O)oc2cc(NC(=O)CCCCCCCC(=O)NO)ccc12 | Histone deacetylase 8 (HDAC8, Homo sapiens, UniProt Q9BY41) | ITC | phosphate buffer | concentration not given, pH 7.5 | – | binding stoichiometry | 0.8 |
| COC(=O)[C@@]1(C)C=C(C(=O)Nc2cccc(C(=O)Nc3ccc(Nc4nccc(-c5cccnc5)n4)c(C)c3)c2)C(=O)CC1 | Mitogen-activated protein kinase 14 (MAPK14, Homo sapiens, UniProt Q16539) | enzyme activity, inhibitor | – | 4.938 µM, unit not given | reference: vehicle | remaining activity | 1.01 and 0.775 and 0.865 |
| COCCOc1cc2ncnc(Nc3cccc(-c4cn(Cc5ccc(S(N)(=O)=O)cc5)nn4)c3)c2cc1OCCOC | Carbonic anhydrase 12 (CA12, Homo sapiens, UniProt O43570) | – | – | – | reference: Ki hCA VA over Ki hCA XII | selectivity ratio | 2.17 |
| N=C(N)NCCS(=O)(=O)O | Sodium- and chloride-dependent taurine transporter (SLC6A6, Homo sapiens, UniProt P31641, Y138A) | binding, microscale thermophoresis | – | 3.91 µM, room temperature, with: 50 nM labelled protein | higher = more binding | normalised MST signal | 0.0129 |
| CC1=CC(C)=[N+]2C1=C(CCCCCN1CCC(O)(c3ccccc3Cl)CC1)c1c(C)cc(C)n1[B-]2(F)F | Sodium- and chloride-dependent glycine transporter 2 | MS binding competition | – | 10 µM | – | remaining specific binding | 44.5 ± 8.7% |
| COc1cc2ncnc(Nc3ccc(Oc4cccc(C)c4)cc3)c2cc1OC | SMUG1 (Homo sapiens, UniProt Q53HV7) | enzyme activity, activator, fluorescence | – | 2 µM | reference: control | activity | 120 ± 70% |
| CCCCCCCO[C@H]1O[C@H](CO)[C@@H](O)[C@H](O)[C@@H]1O | Type 1 fimbrin D-mannose specific adhesin, lectin domain (fimH, Escherichia coli K-12, UniProt P08191) | binding, isothermal titration calorimetry | – | 25 °C, individual direct titrations | – | ΔG | -10.3 kcal/mol |
| CCOC(=O)c1ccc2c(c1)C1CC(C)(N2)c2c(C)nc3ccc(C(=O)OCC)cc3c21 (single isomer, unassigned) | Glideosome-associated protein 50 (GAP50, Plasmodium falciparum, UniProt Q8I2X3) | binding, surface plasmon resonance | – | 1:1 binding model | – | koff | 0.548 s⁻¹ |
| CCOC(=O)C1CCCN(CCOCCn2cc(-c3cccs3)nn2)C1 (racemic) | Sodium- and chloride-dependent glycine transporter 2 | MS binding competition | – | 10 µM | – | remaining specific binding | 105 ± 6.8% |
| OC[C@@H]1[C@@H](O)[C@H](O)[C@@H](O)c2nccn21 | bglA (Thermotoga maritima, UniProt Q08638) | ITC | – | pH 6.8, 25 °C | – | ΔG | -9.345 ± 0.0813 kcal/mol |
| Cc1cc(-c2ccccc2)cc(C(=O)NNS(=O)(=O)c2ccccc2)c1F | Histone acetyltransferase KAT5 (KAT5, Homo sapiens, UniProt Q92993) | SPR | – | 0.0078 µM | higher = more binding | SPR binding response | 0.127 RU |
| CC(C)Oc1cc(Cl)ccc1CNc1cc(-c2ccccc2)nc2ncnn12 | G-protein coupled receptor 3 (GPR3, Homo sapiens, UniProt P46089, V196W) | cAMP level, cAMP GloSensor | – | 1 µM | higher = more cAMP | cAMP luminescence | 29300 a.u. and 45300 a.u. and 30700 a.u. and 43500 a.u. |
| O=C1c2sc(-c3ccc(N4CCC(CO)CC4)nc3F)nc2CCN1c1cccnc1 | TAR DNA-binding protein 43, aggregated (TARDBP, Homo sapiens, UniProt Q13148) | radioligand binding | control brain sarkosyl-insoluble extract | 9.68 nM | – | specific binding | -0.017 nM |
| Nc1nc2nn[nH]c2c(=O)[nH]1 | Trypanosoma cruzi | reporter mRNA translation, inhibitor, item: Renilla luciferase mRNA | cell-free extract | concentration not given, test 1 | reference: positive over negative control | translation activity | 77.6% |
| CCCCCC=CC=C1C(=O)C=CC1CC=CCCCC(=O)O (centres unmarked) | Proteasome subunit beta type-8 (PSMB8, Homo sapiens, UniProt P28062) | competitive isoTOP-ABPP | Ramos soluble proteome | 100 µM, 60 min, with: iodoacetamide probe | reference: DMSO over compound-treated, higher = stronger cysteine blockade | isoTOP-ABPP competition ratio | 4.7 |

| SMILES | target or system | assay | test system | setting | how to read | endpoint | result |
| --- | --- | --- | --- | --- | --- | --- | --- |
| C#CCOC(=O)[C@@]1(C)C=C(C(=O)OC(C)(C)C)C(=O)CC1 | Mitogen-activated protein kinase 1 (MAPK1, Homo sapiens, UniProt P28482) | enzyme activity, D-SENSOR | – | 44.44 µM, single replicate | – | normalized kinase activity | 0.924 and 0.982 and 0.961 |
| Cc1ccc(Nc2nc(NCc3ccco3)c3ccccc3n2)cc1 | Trypanosoma cruzi | reporter mRNA translation, inhibitor, item: Renilla luciferase mRNA | cell-free extract | concentration not given, test 1 | reference: positive over negative control | translation activity | 76.1% |
| CC(C)[C@@H]1NC(=O)[C@H](Cc2ccccc2)NC(=O)CSC[C@@H](C(N)=O)NC(=O)[C@H](CCC(=O)O)NC(=O)[C@H](CO)NC(=O)[C@H](Cc2c[nH]c3cccc(Cl)c23)NC(=O)[C@H](C2CCCCC2)NC(=O)[C@H](C(C)C)NC(=O)[C@H](Cc2ccc(O)cc2)NC(=O)[C@H](CC(=O)O)NC(=O)[C@H](Cc2c[nH]c3ccccc23)NC(=O)[C@H](Cc2ccc(N)nc2)NC(=O)[C@H](Cc2c[nH]c3ccc(Cl)cc23)NC(=O)[C@H](CCC(=O)O)NC1=O | Interleukin-1 receptor-like 2 (IL1RL2, Homo sapiens, UniProt Q9HB29) | reporter gene (SEAP), inhibitor, HEK-Blue IL-36R reporter | HEK-Blue IL-36R cells | 0.14 µM, 6 h, with: IL-36β 0.03 ng/mL | – | remaining activity | 52.5% |
| CCCCCCCCCCCCC/C=C/C=O | T-complex protein 1 subunit eta (Homo sapiens, UniProt Q99832) | competitive isoTOP-ABPP, item: CCT7 cysteine peptide | Ramos soluble proteome | 100 µM, with: iodoacetamide probe | reference: DMSO over compound-treated, higher = stronger cysteine blockade | isoTOP-ABPP competition ratio | 1 |
| CN1CCCNC(=O)c2cccc(c2)C(=O)NCCCN(C)CCCNc2cccc3c2C(=O)c2cccc(c2C3=O)NCCC1 | SAS | RNA-Seq, item: JMJD6 mRNA | – | 1 µM, 6 h | reference: untreated cells | log2 fold change | -2.22 |
| COC(=O)Cc1cc2c(cc1C(=O)c1cccc(Br)c1)OCO2 | Gria1/Gria2 | glutamate-evoked current, whole-cell patch clamp | HEK-293T | concentration not given, pH 7.4, holding potential -60 mV, with: 10 mM glutamate | – | current amplitude | 237 ± 12 pA |
| CC(=O)c1cnc(NS(=O)(=O)c2ccc(C(F)(F)F)c(Cl)c2)nc1 | 17-beta-hydroxysteroid dehydrogenase 13 (Homo sapiens, UniProt Q7Z5P4) | enzyme activity | human hepatocytes, HSD17B13 siRNA, culture medium | 48 h | reference: scramble siRNA control | oxidized product ratio | 0.234 and 0.244 and 0.274 |
| COC(=O)Cc1cc2c(cc1C(=O)c1cccc(I)c1)OCO2 | Gria1/Gria2 | glutamate-evoked current, whole-cell patch clamp | HEK-293T | concentration not given, weighted tau, 500 ms pulse, with: glutamate | – | desensitization time constant | 5.3 ± 0.4 ms |
| CCCCCCCCOP(=O)(Cc1ccccc1)O[C@@H]1O[C@H](CO)[C@@H](O)[C@H](O)[C@H]1F (some centres unmarked) | Lysosomal acid glucosylceramidase (GBA1, Homo sapiens, UniProt P04062, L483P) | chaperone | MEF expressing GBA L444P | 100 µM, three days, then 72 h washout | reference: untreated | relative activity | 0.95 |
| COC1CN([C@H]2CC[C@H]([C@@]3(C)Oc4c(Cl)cc(C(=O)NCc5c(SC)cc(C)[nH]c5=O)c(C)c4O3)CC2)C1 | – | RNA-seq, item: MDK mouse homolog | mouse, HT-1376 xenograft, whole blood | dose not given | reference: vehicle | log2 fold change | 1.39 |
| O=C(OCCCCOP(=O)(O)OP(=O)(O)OP(=O)(O)O)c1ccccc1 | DNA polymerase lambda (POLL, Homo sapiens, UniProt Q9UGP5) | substrate | – | AP-site template, wild type | reference: dCTP over compound | efficiency relative to dCTP | 380 fold |
| Cc1ncsc1-c1ccc(C(C)NC(=O)C2CC(O)CN2C(=O)C(NC(=O)CCCCCCCCCCN2CCCC(Nc3ncc(Cl)c(Nc4ccccc4S(=O)(=O)C(C)C)n3)C2)C(C)(C)C)cc1 (centres unmarked) | 22Rv1 | RNA-seq, item: SLC33A1 mRNA | – | concentration not given | reference: DMSO | log2 fold change | -1.41 |
| O=C(O)Cc1cc2c(cc1C(=O)c1cccc(Cl)c1)OCO2 | Gria1/Gria2 | glutamate-evoked current, whole-cell patch clamp | HEK-293T | concentration not given, pH 7.4, holding potential -60 mV, with: 10 mM glutamate | – | current amplitude | 74 ± 5 pA |
| CCc1ccc(N2CCC(O)C2)cc1 (centres unmarked) | Uridine nucleoside ribohydrolase (Trichomonas vaginalis, UniProt A2FTT0) | enzyme activity, 19F NMR | – | 200 µM, 1-fold dilution | – | inhibition after jump dilution | 100% |
| COc1ccc(C2(C(=O)N3CCC(Nc4nc5ccccc5c(=O)[nH]4)CC3)CC2)cc1 | MRGPRD (Homo sapiens, UniProt Q8TDS7) | miniGq recruitment, agonist, BRET1 | HEK293T | – | reference: wild type | Emax | 91.5 ± 2.36% |
| Nc1ncc(-c2cc(-c3cnn(CC(F)(F)F)c3)ncc2F)nc1C(=O)NC1CNCC(F)C1 (centres unmarked) | Lymphokine-activated killer T-cell-originated protein kinase (PBK, Homo sapiens, UniProt Q96KB5) | enzyme activity | – | 1 µM | reference: DMSO control | remaining activity | 105% |

A few entries again:
| SMILES | target or system | assay | test system | setting | how to read | endpoint | result |
| --- | --- | --- | --- | --- | --- | --- | --- |
| N=C(N)NCCS(=O)(=O)O | Sodium- and chloride-dependent taurine transporter (SLC6A6, Homo sapiens, UniProt P31641, Y138A) | binding, microscale thermophoresis | – | 3.91 µM, room temperature, with: 50 nM labelled protein | higher = more binding | normalised MST signal | 0.0129 |
| CC1=CC(C)=[N+]2C1=C(CCCCCN1CCC(O)(c3ccccc3Cl)CC1)c1c(C)cc(C)n1[B-]2(F)F | Sodium- and chloride-dependent glycine transporter 2 | MS binding competition | – | 10 µM | – | remaining specific binding | 44.5 ± 8.7% |
| COc1cc2ncnc(Nc3ccc(Oc4cccc(C)c4)cc3)c2cc1OC | SMUG1 (Homo sapiens, UniProt Q53HV7) | enzyme activity, activator, fluorescence | – | 2 µM | reference: control | activity | 120 ± 70% |
